{"data": "Experimental data pooled from the literature", "note": "Protocols differ between the studies behind these lines. Numbers after ± are the reported error."}
{"SMILES": "C[C@H](O)[C@@H](NC(=O)[C@H]1CCCN1C(=O)[C@@H](CCCCN)NC(=O)[C@@H](CO)NC(=O)[C@@H](Cc1ccc(O)cc1)NC(=O)[C@@H](CC(N)=O)NC(=O)CCOCCOCCOCCNC(=O)CN1CCN(CC(=O)O)CCN(CC(=O)O)CCN(CC(=O)O)CC1)C(=O)N[C@H](CC(=O)O)C(=O)N[C@H](CCCNC(=N)N)C(=O)N[C@H](CCC(N)=O)C(=O)N[C@H](Cc1ccc(O)cc1)C(=O)N[C@H](Cc1c[nH]cn1)C(=O)N[C@H](Cc1ccccc1)C(N)=O [gallium-68 labelled]", "test system": "BALB/c nude mice U-87 MG tumour, pancreas", "setting": "intravenous, 1.85 MBq, 0.08333 h, radiolabelled", "tissue uptake": "1.88 ± 0.28 %ID/g"}
{"SMILES": "CSCC[C@H](NC(=O)CNC(=O)[C@H](CCCCN)NC(=O)[C@H](CC(C)C)NC(=O)[C@@H]1CCCN1C(=O)[C@H](CO)NC(=O)[C@H](Cc1c[nH]cn1)NC(=O)[C@H](Cc1c[nH]c2ccccc12)NC(=O)[C@H](CCCNC(=N)N)NC(=O)[C@H](CC(C)C)NC(=O)[C@H](CCCNC(=N)N)NC(=O)[C@H](Cc1c[nH]c2ccccc12)NC(=O)[C@H](CS)NC(=O)CCCCCNC(=O)CN1CCN(CC(=O)O)CCN(CC(=O)O)CCN(CC(=O)O)CC1)C(=O)O [copper-64 labelled]", "assay": "ex vivo biodistribution", "test system": "male C57BL/6J mice, spleen", "setting": "intravenous, 1.85 MBq, 2 h, B16-F10 tumour-bearing", "tissue uptake": "1.98 %ID/g"}
{"SMILES": "CC[C@H](C)[C@H](NC(=O)[C@H](CCCNC(=N)N)NC(=O)[C@H](CCCCN)NC(=O)[C@H](Cc1ccc(O)cc1)NC(=O)[C@H](CC(=O)O)NC(=O)[C@H](C)NC(=O)CNC(=O)CCOCCOCCOCCNC(=O)CN1CCN(CC(=O)O)CCN(CC(=O)O)CCN(CC(=O)O)CC1)C(=O)N[C@H](C(=O)N[C@H](C(=O)N[C@@H](CCCCN)C(=O)N[C@H](C(=O)N[C@@H](CC(N)=O)C(N)=O)C(C)C)C(C)C)[C@@H](C)O [copper-64 labelled]", "assay": "ex vivo gamma counting", "test system": "C57BL/6J male mice, B16-F10 tumour, kidney", "setting": "intravenous, 1.85 MBq, 100 min", "tissue uptake": "8.96 ± 0.701 %ID/g"}
{"SMILES": "CC(C)C[C@@H](NC(=O)[C@@H](CCCNC(=N)N)NC(=O)[C@@H](Cc1c[nH]cn1)NC(=O)[C@@H](Cc1c[nH]c2ccccc12)NC(=O)[C@@H](Cc1c[nH]cn1)NC(=O)[C@@H](Cc1ccccc1)NC(=O)[C@H](NC(=O)[C@@H](Cc1ccc(O)cc1)NC(=O)CNC(=O)CNC(=O)CCOCCOCCOCCNC(=O)CN1CCN(CC(=O)O)CCN(CC(=O)O)CC1)[C@H](C)O)C(=O)N[C@H](CC(N)=O)C(=O)N1CCC[C@@H]1C(=O)O [gallium-68 labelled]", "assay": "gamma counting", "test system": "C57BL/6 mice, male, spleen", "setting": "intravenous, 1.85 MBq, 120 min", "tissue uptake": "1.76 ± 0.26 %ID/g"}
{"SMILES": "CC[C@H](C)[C@H](NC(=O)[C@H](CCCCN)NC(=O)CNC(=O)[C@H](CC(C)C)NC(=O)[C@H](Cc1ccccc1)NC(=O)[C@H](CCCCN)NC(=O)[C@H](CO)NC(=O)[C@H](Cc1ccccc1)NC(=O)[C@H](Cc1c[nH]c2ccccc12)NC(=O)[C@H](CCC(N)=O)NC(=O)[C@@H](NC(=O)[C@H](Cc1ccccc1)NC(=O)CCCCCNC(=O)CN1CCN(CC(=O)O)CCN(CC(=O)O)CCN(CC(=O)O)CC1)C(C)C)C(=O)N[C@@H](CCC(=O)O)C(=O)N1CCC[C@H]1C(=O)N[C@@H](CC(=O)O)C(=O)N[C@H](C(=O)N[C@@H](CO)C(=O)N[C@@H](CCC(N)=O)C(=O)N[C@H](C(=O)N[C@@H](CCC(N)=O)C(=O)N[C@@H](CC(=O)O)C(=O)N1CCC[C@H]1C(=O)N[C@@H](CC(N)=O)C(=O)N[C@@H](CC(=O)O)C(=O)N[C@@H](CCC(N)=O)C(=O)N[C@@H](Cc1ccc(O)cc1)C(=O)N[C@@H](CCC(=O)O)C(=O)N1CCC[C@H]1C(=O)N[C@@H](Cc1ccccc1)C(=O)O)C(C)C)C(C)C [copper-64 labelled]", "test system": "C57BL/6 mice, male, tumour-free, liver", "setting": "2 h", "tissue uptake": "25 ± 2.7 %ID/g"}
{"SMILES": "CCCC[C@H]1C(=O)N(C)[C@@H](CCCC)C(=O)N[C@@H](CCCNC(=O)CN2CCN(CC(=O)O)CCN(CC(=O)O)CCN(CC(=O)O)CC2)C(=O)N[C@H](C(=O)NCC(N)=O)CSCC(=O)N[C@@H](Cc2ccc(O)cc2)C(=O)N(C)[C@@H](C)C(=O)N[C@@H](CC(N)=O)C(=O)N2CCC[C@H]2C(=O)N[C@@H](Cc2c[nH]cn2)C(=O)N[C@@H](CC(C)C)C(=O)N(C)CC(=O)N[C@@H](Cc2c[nH]c3ccccc23)C(=O)N[C@@H](CO)C(=O)N[C@@H](Cc2c[nH]c3ccccc23)C(=O)N1C [gallium-68 labelled]", "test system": "NOD/SCID mice with CHO-hPD-L1 xenograft, blood", "setting": "30 min post injection", "tissue uptake": "9.84 ± 0.53 %ID/g"}
{"SMILES": "CN1Cc2cc(Cl)ccc2-n2c(nnc2C2CCN(c3cccc([18F])n3)CC2)C1", "test system": "C57BL/6 mouse male, adrenal gland", "setting": "intravenous, 3.7 MBq, 15 min", "tissue uptake": "6.54 ± 2.65 %ID/g"}
{"SMILES": "CC[C@H](C)[C@H](NC(=O)[C@H](CCCNC(=N)N)NC(=O)[C@H](CCCCN)NC(=O)[C@H](Cc1ccc(O)cc1)NC(=O)[C@H](CC(=O)O)NC(=O)[C@H](C)NC(=O)CNC(=O)CCOCCOCCOCCNC(=O)CN1CCN(CC(=O)O)CCN(CC(=O)O)CCN(CC(=O)O)CC1)C(=O)N[C@H](C(=O)N[C@@H](CC(C)C)C(=O)N[C@@H](CCCCN)C(=O)N[C@H](C(=O)N[C@@H](CC(N)=O)C(N)=O)C(C)C)[C@@H](C)O [copper-64 labelled]", "assay": "ex vivo gamma counting", "test system": "C57BL/6J male mice, B16-F10 tumour, spleen", "setting": "intravenous, 1.85 MBq, 5 min", "tissue uptake": "5.24 ± 0.285 %ID/g"}
{"note": "Some of these lines once more:"}
{"SMILES": "CSCC[C@H](NC(=O)CNC(=O)[C@H](CCCCN)NC(=O)[C@H](CC(C)C)NC(=O)[C@@H]1CCCN1C(=O)[C@H](CO)NC(=O)[C@H](Cc1c[nH]cn1)NC(=O)[C@H](Cc1c[nH]c2ccccc12)NC(=O)[C@H](CCCNC(=N)N)NC(=O)[C@H](CC(C)C)NC(=O)[C@H](CCCNC(=N)N)NC(=O)[C@H](Cc1c[nH]c2ccccc12)NC(=O)[C@H](CS)NC(=O)CCCCCNC(=O)CN1CCN(CC(=O)O)CCN(CC(=O)O)CCN(CC(=O)O)CC1)C(=O)O [copper-64 labelled]", "assay": "ex vivo biodistribution", "test system": "male C57BL/6J mice, spleen", "setting": "intravenous, 1.85 MBq, 2 h, B16-F10 tumour-bearing", "tissue uptake": "1.98 %ID/g"}
